Measured values collected from several papers.
Each numbered part is a random draw from the data of one study; scales do not carry over between parts. Changes are numbered by the printed parent chain.

Block 1
Target: Prothrombin, mature alpha-thrombin (F2, Homo sapiens, UniProt P00734)
Technique: aptamer microarray, sandwich
Form: DNA with 2'F-ANA
Sample: in vitro
Concentration: 200 nM
Setting: whole 15-mer aptamer, many near background
Together with: Cy3 exosite-II aptamer, 400 nM
Reading: higher = stronger binding
Strand: GGTTGGTGTGGTTGG
`2'F-ANA at 1 2 3 4 5 7 9 10 14` — result for “mean fluorescence intensity”: 49.1 a.u.
`2'F-ANA at 1 2 3 4 6 9 10 12 14 15`: “mean fluorescence intensity” 50.6 a.u.
For `2'F-ANA at 3 4 7 8 11 12 14 15`, “mean fluorescence intensity” read 495 a.u.
`2'F-ANA at 3 4 7`: “mean fluorescence intensity” 821 a.u.
`2'F-ANA at 1 5 6 8 10 11 12` — result for “mean fluorescence intensity”: 51.4 a.u.
`2'F-ANA at 1 4 5 6 8 11 13`: “mean fluorescence intensity” 49.5 a.u.
`2'F-ANA at 10 13 15` — result for “mean fluorescence intensity”: 168 a.u.
For `2'F-ANA at 2 4 5 9 11 14 15`, “mean fluorescence intensity” read 51.7 a.u.
`2'F-ANA at 4 6 8 10 12 13` — result for “mean fluorescence intensity”: 80.4 a.u.
For `2'F-ANA at 1 7 9 10 11 12 13`, “mean fluorescence intensity” read 62.2 a.u.
For `2'F-ANA at 3 6 9 10 11 12 13 14`, “mean fluorescence intensity” read 357 a.u.
`2'F-ANA at 1 2 3 4 7 8 11 13` — result for “mean fluorescence intensity”: 178 a.u.
`2'F-ANA at 4 7 12 13 14 15`: “mean fluorescence intensity” 133 a.u.
Under “mean fluorescence intensity”, `2'F-ANA at 1 5 7 11 12 13 15` is recorded as 69.5 a.u.
`2'F-ANA at 1 2 7 8 10 12` — result for “mean fluorescence intensity”: 61.2 a.u.
`2'F-ANA at 2 3 5 7 9 12 13`: “mean fluorescence intensity” 175 a.u.
Under “mean fluorescence intensity”, `2'F-ANA at 1 2 4 5 7 8 12 15` is recorded as 114 a.u.

Block 2
Target: ABI1, truncated, D143A, DHFR fusion (Arabidopsis thaliana)
Technique: DHFR PCA, deep sequencing
Sample: yeast
Setting: methotrexate growth selection, single substitutions
Together with: (+)-ABA 710 µM
Reference: wild-type fitted maximum
Reading: higher = stronger binding
Starting sequence: PYL1, truncated, DHFR fusion (Arabidopsis thaliana); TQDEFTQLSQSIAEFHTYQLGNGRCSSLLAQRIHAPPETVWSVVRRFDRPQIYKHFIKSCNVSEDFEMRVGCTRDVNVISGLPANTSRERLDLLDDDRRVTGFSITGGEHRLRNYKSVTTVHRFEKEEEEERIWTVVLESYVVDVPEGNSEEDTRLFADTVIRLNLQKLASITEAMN
Under “relative binding score”, `T17E` is recorded as 102%.
For `N114R`, “relative binding score” read 94.2%.
For `P146G`, “relative binding score” read 86.7%.
For `S104Q`, “relative binding score” read 81.2%.
`G71R` — result for “relative binding score”: 61.1%.
Under “relative binding score”, `V143N` is recorded as -5.65%.
Under “relative binding score”, `L169F` is recorded as 10.6%.
Under “relative binding score”, `H34D` is recorded as 105%.
Under “relative binding score”, `L138M` is recorded as 97.5%.
`L29H`: “relative binding score” 99.3%.
For `L156F`, “relative binding score” read 96.9%.
For `T160D`, “relative binding score” read -7.8%.
Under “relative binding score”, `E128G` is recorded as 112%.
`S9V` — result for “relative binding score”: 96.7%.

Block 3
Target: TAR DNA-binding protein 43, full length, His tag (TARDBP, Homo sapiens, UniProt Q13148, residues 1-414)
Technique: RNA Bind-n-Seq
Form: RNA
Sample: in vitro
Concentration: 20 nM
Setting: 6-mer, flanks averaged, single round
Together with: 150 mM KCl
Reference: input library
Reading: higher = stronger binding
`CCAGAA`: “6-mer enrichment (R)” 0.709.
For `UCAACU`, “6-mer enrichment (R)” read 0.564.
`UACGGA`: “6-mer enrichment (R)” 0.861.
`UGCUGG` — result for “6-mer enrichment (R)”: 1.43.
`AGAUCU`: “6-mer enrichment (R)” 0.575.
Under “6-mer enrichment (R)”, `AUAAAG` is recorded as 0.735.
For `CAUCCG`, “6-mer enrichment (R)” read 0.636.
`UUUGUC`: “6-mer enrichment (R)” 0.62.
Under “6-mer enrichment (R)”, `CCACCC` is recorded as 0.645.
Under “6-mer enrichment (R)”, `UUCCCC` is recorded as 0.633.
`UAACAC` — result for “6-mer enrichment (R)”: 0.64.
For `AACUUG`, “6-mer enrichment (R)” read 0.632.
`AGAGUA`: “6-mer enrichment (R)” 0.851.
Under “6-mer enrichment (R)”, `GGACUU` is recorded as 0.9.
Under “6-mer enrichment (R)”, `GUUGAC` is recorded as 0.777.
For `UGUGCC`, “6-mer enrichment (R)” read 0.865.
`CAUUGU` — result for “6-mer enrichment (R)”: 0.608.
`AUAGGU` — result for “6-mer enrichment (R)”: 0.797.
For `AUGCCG`, “6-mer enrichment (R)” read 0.847.
`CGGAGA` — result for “6-mer enrichment (R)”: 1.47.
`UGACUC` — result for “6-mer enrichment (R)”: 0.6.
`UCUAUU` — result for “6-mer enrichment (R)”: 0.573.
Under “6-mer enrichment (R)”, `CCCCUC` is recorded as 0.656.
Under “6-mer enrichment (R)”, `GGCUGU` is recorded as 1.41.
Under “6-mer enrichment (R)”, `AGCGGU` is recorded as 1.44.

Block 4
Target: Histone acetyltransferase KAT6A, winged helix 1, GST fusion (KAT6A, Homo sapiens, UniProt Q92794, residues 1-85)
Technique: protein binding microarray
Form: double-stranded DNA, one strand shown
Sample: in vitro
Concentration: not given
Setting: 8-mer, flanks averaged, mean of 2 arrays, mostly near background
Reference: not given
Reading: higher = stronger binding
Residues (chain): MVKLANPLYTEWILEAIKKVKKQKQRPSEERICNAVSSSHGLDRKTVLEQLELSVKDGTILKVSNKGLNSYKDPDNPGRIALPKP
`CGTAGGCC` gave an E-score of 0.0533.
`CCGGGGTC` has an E-score of 0.264.
For `TAGGCTAA`, the E-score was -0.152.
`GATGTTTA` has an E-score of -0.0696.
For `ACTTGATC`, the E-score was -0.104.
`CGGGTTAC` has an E-score of 0.313.
`TATCGCCA` gave an E-score of -0.00687.
With `AGACACCC` the E-score was -0.145.
`AAAAAGAT` gave an E-score of -0.129.
`CCGCAGTA` has an E-score of 0.149.
For `AGAGTGAA`, the E-score was -0.298.
The E-score of `GAACCCGA` is reported as 0.0963.
The E-score of `AATGAATA` is reported as -0.0841.
The E-score of `AGTTACGC` is reported as 0.282.
The E-score of `GAGAGAGC` is reported as -0.0485.
`ACAAACAC` has an E-score of -0.0495.
For `CAAATGTA`, the E-score was -0.151.
With `CCTCGAGC` the E-score was -0.0256.

Block 5
Target: RNA binding protein fox-1 homolog 2, RRM domain, GST-SBP tag (RBFOX2, Homo sapiens, UniProt O43251-10, residues 100-194)
Technique: RNA Bind-n-Seq
Form: RNA
Sample: in vitro
Concentration: 365 nM
Setting: natural RNA segment, single round, ends assumed
Reference: no-protein control
Reading: higher = stronger binding
Residues (chain): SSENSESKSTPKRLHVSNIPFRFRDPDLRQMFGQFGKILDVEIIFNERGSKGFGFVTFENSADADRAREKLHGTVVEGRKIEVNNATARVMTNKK
`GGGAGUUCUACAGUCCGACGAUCGUCUACCUGCUGCUCCUACCAACCUGCACUGCAGCCUGGGUAGAGGGCGCUGCCACCACAAGGCCAGCCACUGAGCAGGCAGCUCCCUUCGUCGUCCUCCUGCCCACCCGUGGAAUUCUCGGGUGCCAA`: “RBNS enrichment (R)” 0.337.
`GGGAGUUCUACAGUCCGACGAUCCUUGGCCUCCCUAGGCUAUAUCUGGGACUGGGGGGAUGACAUGCUCCCACUCUGGCUCCUUGUUCUCUGGCAAACCGUAGCGUGGCUGCCAGCAUCCUGUAGCGCGGAUAUGGAAUUCUCGGGUGCCAA` — result for “RBNS enrichment (R)”: 1.49.
For `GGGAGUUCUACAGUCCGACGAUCCAUGGGAGGAAAGGCUCCACUUGCCCUUAACUCAAGAAGCAGAGCUUGUGCUAUGCACGGGGUGUCUGAGCGGUGCCCAGGCCGUUCCACACAGACACCUCAGUGUUGGAUGGAAUUCUCGGGUGCCAA`, “RBNS enrichment (R)” read 0.597.
`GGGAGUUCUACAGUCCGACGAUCAAAGCCUCUCACUUGAACCCAAACCAGAGUACUCUUACUGCCUCUUUUCUAAAUGUUCAGGAAAAGCAUUGCCAGUUCAGUCUUUUCAAAAUGAGGGAGAAACAUUUGCCUGGAAUUCUCGGGUGCCAA` — result for “RBNS enrichment (R)”: 0.347.
`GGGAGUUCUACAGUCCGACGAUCUUUCUGCUGACAACUUAGGUUGUAUGAGUUAUGCUUAAAAGCUUUAAAUCGGAUGUUUCCUGUACCUGCCACACUAUGUUAGAAUGUGUCCUUCAACCAUAUCCUGCAACUGGAAUUCUCGGGUGCCAA` — result for “RBNS enrichment (R)”: 0.409.
For `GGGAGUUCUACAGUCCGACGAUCAAAAAAAAGCAGAGUUUUUGUUUUUCAACCCUUUAUGUUUGUUUUGUUUUAUUCUUAAAUAAGCAAGCAAAACCUGCACAUUGGAUUCACGUGAGAUGAUAAUGAAAACUUGGAAUUCUCGGGUGCCAA`, “RBNS enrichment (R)” read 0.444.
For `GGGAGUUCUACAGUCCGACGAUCUCCUCUAUCCUGGUAACUCCUCACUGUACUGAUUUACUGGUGCAUGCAAUUCUGUUAAAAAAUGUAUUCUUCUGAAUAAAGAGAAUAUUCACUAUUUAACUGCAAACCAAUGGAAUUCUCGGGUGCCAA`, “RBNS enrichment (R)” read 1.02.
Under “RBNS enrichment (R)”, `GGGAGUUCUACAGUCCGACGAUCUAUGGACAGGGUCCCCUCCUGCUGUCCCUCCCUGCUCACACUUGCUCAGAUGCUGCAGUGCAGGGGCUUCAGCAUUCUUGAGUUCCUCCGUGUUAAUAAAAACAUCCUGUUGGAAUUCUCGGGUGCCAA` is recorded as 0.335.
